Measurements from different studies.
Compare with care: the assays were run in different laboratories. Numbers after ± are the reported error.

CCCCCC(=O)Oc1c(C)c(OC)c2c(/C=C/c3ccccc3)c(CCCC)c(=O)oc2c1C
IC50 (HT-29; cell growth or viability, SRB; 72 h): > 50000 nM

Cc1cc(C)cc(COc2cc3c(cc2OCc2cc(C)cc(C)c2)[C@@H]2C[C@](O)(Cc4cn(Cc5ccc(F)cc5)nn4)C[C@H](C)N2CC3)c1 (single isomer, unassigned)
IC50 (GES1; cell growth or viability, MTT; 48 h): 2490 nM

CCN(C(=O)c1cc(F)ccc1Oc1nncnc1N1CCC2(C1)CN([C@H](CCCN(C)CCOC)C(C)C)C2)C(C)C
IC50 (OCI-AML-3 (NPM1c); mRNA level, QuantiGene multiplex, measured: PBX3): 114 ± 29 nM

C[n+]1ccc(/C=N/NC(=O)c2cc(C(=O)N/N=C/c3cc[n+](C)cc3)ncn2)cc1
ΔTm (22CTA telomeric G4-DNA antiparallel; FRET melting; 1 µM, K10 buffer, DNA 0.2 µM, together with: ds26 10 µM): 0.9 ± 0.6 °C

CCOc1cncc(-c2ccc(NC(=O)C3(c4ccnc(NS(=O)(=O)C5CC5)n4)CCOCC3)nc2)n1
IC50 (CCRF-CEM-VCR; cell proliferation, CellTiter-Glo; 72 h, lymphoid haematological cancer): 183 nM

O=[P@]1(c2ccccc2)CC[C@H](O)CC1
IC50 (HaCaT; cell growth or viability, MTT; 72 h): > 100000 nM

c1ccc2nc3c4cccnc4c4ncccc4c3nc2c1
IC50 (BEL-7404; cell growth or viability, MTT; 48 h): > 50000 nM

C[C@@H]1CC[C@@H]([C@@](O)(CNCc2ccc(F)cc2)COCc2ccc(F)cc2)[C@H](OCc2ccc(F)cc2)C1
IC50 (A2780; cell growth or viability, MTT; 72 h): 1410 nM

NC(=O)c1ccc(-c2ccccc2Cl)c2c3c([nH]c12)CC[C@@H](N)C3
IC50 (MINO; cell growth or viability): 21.2 nM

COc1ccc(CNC[C@@](O)(COCc2ccc(F)cc2)[C@@H]2CC[C@@H](C)C[C@H]2OCc2ccc(F)cc2)cc1
IC50 (A2780; cell growth or viability, MTT; 72 h): 1390 nM

O=C(O)c1ccc2c3n(nc2c1)[C@@H]1[C@H](CO3)N(CC2CC2)[C@@]2(C(=O)Nc3cc(Cl)ccc32)[C@H]1c1cccc(Cl)c1F
IC50 (SJSA-1; cell growth or viability, ATP luminescence): 163 nM

CNC(=O)c1ccc(C2CCCCC2)cc1
hepatic clearance (hepatocyte stability; cryopreserved mouse hepatocytes; 1 µM): 77 mL/min/kg

O=C1NCCC12CCN(c1c(Cl)cncc1-c1ccc(N3CCOCC3)cc1)CC2
IC50 (LS174T; WNT reporter gene, inhibitor, TCF/LEF luciferase): 155 ± 80 nM

Cc1ccnc(-c2cc(C)ccn2)c1.[Co+2].[O-]c1c(I)cc(I)c2cccnc12.[O-]c1c(I)cc(I)c2cccnc12
IC50 (BEL-7404; cell growth or viability, MTT; 48 h): 35700 nM

C=CC(=O)N1CCCC(n2c(=O)c3ncccc3n(Cc3ccc(Oc4ccccc4)cc3)c2=O)C1 (centres unmarked)
IC50 (MINO; cell growth or viability, MTT; 72 h): 100 nM

C[n+]1c(/C=C/c2ccc(N(c3ccccc3)c3ccccc3)cc2)cc(/C=C2\Sc3ccccc3N2CCCN2CCCC2)c2ccccc21
IC50 (16HBE; cell growth or viability, MTT; 36 h): 15600 nM

Cn1ncc(-c2ccc3c(=O)[nH]nc(CN)c3c2)c1-c1c(F)c(Cl)cc(OC2CC2)c1C#N
IC50 (A101D; cell viability, inhibitor, CellTiter-Glo; 120 h, baseline-subtracted): 50 nM

CN1CCC(N[C@H]2CCc3[nH]c4c(C(N)=O)ccc(-c5ccccc5Cl)c4c3C2)CC1
IC50 (Pfeiffer; cell growth or viability): 406 nM

O=C(c1ccc(C2CCCCC2)cc1)N1CCC(F)CC1
hepatic clearance (liver microsome stability; mouse liver microsomes; 1 µM): 86 mL/min/kg

Cc1ccc2c(Br)cc(Br)c([O-])c2n1.Cc1ccc2c(Br)cc(Br)c([O-])c2n1.[Co+2].c1cnc2c(c1)ccc1cccnc12
IC50 (BEL-7404; cell growth or viability, MTT; 48 h): 7540 nM

CNS(=O)(=O)Nc1nccc(Cc2c(C)c3ccc(Oc4ncccc4F)cc3oc2=O)c1F
IC50 (Calu-1; cell viability; 7 days): > 1000 nM

Cc1ccc2c(Cl)cc(Cl)c([O-])c2n1.Cc1ccc2c(Cl)cc(Cl)c([O-])c2n1.[Co+2].c1ccc(-c2ccnc3c2ccc2c(-c4ccccc4)ccnc23)cc1
IC50 (BEL-7404; cell growth or viability, MTT; 48 h): 4920 nM

C[n+]1ccc(/C=N/NC(=O)N/N=C/c2cc[n+](C)cc2)cc1
ΔTm (22CTA telomeric G4-DNA antiparallel; FRET melting; 1 µM, K10 buffer, DNA 0.2 µM, together with: ds26 10 µM): 0.7 ± 0.6 °C

CC(=O)[O][Pt]([NH2])([NH2])([Cl])([Cl])[O]C(=O)C(C)c1ccc(CC(C)C)cc1 (centres unmarked)
IC50 (2008 ovarian adenocarcinoma; cytotoxicity, MTT; 72 h): 980 ± 100 nM

COc1ccnc(-c2cc(OC)ccn2)c1.[Co+2].[O-]c1c(I)cc(I)c2cccnc12.[O-]c1c(I)cc(I)c2cccnc12
IC50 (BEL-7404; cell growth or viability, MTT; 48 h): 19500 nM

COC(CC1C(C)=CCC2C1(C)CCC1C(C)(C)C(O)C(O)CC12C)C(N)C(=O)O (centres unmarked)
IC50 (3T3 fibroblasts; cell viability, CCK-8; 72 h): > 10000 nM

COc1cc(-c2cn(C)c(=O)c3cnccc23)cc(OC)c1Cn1ccnc1
IC50 (MOLM16; cell growth or viability, ATP luminescence): 6800 nM

C[C@H]1CN(C2COC2)CCN1c1ccc(Nc2cc(-c3ccnc(N4CCn5c(cc6c5CC(C)(C)C6)C4=O)c3CO)cn(C)c2=O)nc1
IC50 (TMD8 ABBV-105-resistant; cell viability, CellTiter-Glo; 4 days, 48 h drug withdrawal): > 10000 nM

C=CC(=O)Nc1cc(Nc2nccc(-c3cn(C)c4ccccc34)n2)c(OC)cc1N(C)CCN(C)C
IC50 (Ba/F3 EGFR 19Del/T790M/C797S BBT-176-resistant BR2; cell growth; 72 h): > 1000 nM

CC(=O)Oc1ccccc1C(=O)[O][Pt]([NH2])([NH2])([Cl])([Cl])[O]C(C)=O
IC50 (2008 ovarian adenocarcinoma; cytotoxicity, MTT; 72 h): 650 ± 100 nM

Cc1ccc2c(Cl)cc(Cl)c([O-])c2n1.Cc1ccc2c(Cl)cc(Cl)c([O-])c2n1.[Co+2].c1cnc2c(c1)ccc1cccnc12
IC50 (BEL-7404; cell growth or viability, MTT; 48 h): 4010 nM

COc1ccccc1CNC[C@@](O)(COCc1ccccc1)[C@@H]1CC[C@@H](C)C[C@H]1OCc1ccccc1
IC50 (A2780; cell growth or viability, MTT; 72 h): 1990 nM

[BH3-][P@+]1(c2ccccc2)CC[C@H](O)CC1
IC50 (HaCaT; cell growth or viability, MTT; 72 h): > 100000 nM

CC(C)=CCc1c(OCC2OC2(C)C)ccc2ccc(=O)oc12 (centres unmarked)
IC50 (MRC5; cell growth or viability, MTT; 72 h): > 100000 nM

C[C@@H]1CC[C@@H]([C@@](O)(CNCc2ccccc2F)COCc2ccccc2)[C@H](OCc2ccccc2)C1
IC50 (A2780; cell growth or viability, MTT; 72 h): 4010 nM

Nc1ncc(-c2cc(-c3cnn(CC(F)(F)F)c3)ncc2F)nc1C(=O)NC1CNCC(F)C1 (centres unmarked)
remaining binding (ADCK4; KINOMEscan; 1 µM; reference: DMSO control): 94%

CC1(C)CC(=O)C(C2C3=C(CC(C)(C)CC3=O)Oc3ccccc32)=C(O)C1 (centres unmarked)
IC50 (3T3-L1 mature adipocytes; MTT; 72 h): > 1000 µg/mL

CC(C)c1ccc(N(C)c2ccc3c(c2)OCC[C@H]3CNc2cnccc2C(=O)O)cc1
IC50 (NCI-H1299; cell viability, CellTiter-Glo; 7 days): 7.5 nM

A few entries again:
COC(CC1C(C)=CCC2C1(C)CCC1C(C)(C)C(O)C(O)CC12C)C(N)C(=O)O (centres unmarked)
IC50 (3T3 fibroblasts; cell viability, CCK-8; 72 h): > 10000 nM

COc1cc(-c2cn(C)c(=O)c3cnccc23)cc(OC)c1Cn1ccnc1
IC50 (MOLM16; cell growth or viability, ATP luminescence): 6800 nM

C[C@H]1CN(C2COC2)CCN1c1ccc(Nc2cc(-c3ccnc(N4CCn5c(cc6c5CC(C)(C)C6)C4=O)c3CO)cn(C)c2=O)nc1
IC50 (TMD8 ABBV-105-resistant; cell viability, CellTiter-Glo; 4 days, 48 h drug withdrawal): > 10000 nM

C=CC(=O)Nc1cc(Nc2nccc(-c3cn(C)c4ccccc34)n2)c(OC)cc1N(C)CCN(C)C
IC50 (Ba/F3 EGFR 19Del/T790M/C797S BBT-176-resistant BR2; cell growth; 72 h): > 1000 nM
